Published values collected from several papers.
Every numbered part comes from another study and shows a few of its results, in no order. Changes are numbered by the printed parent chain.

Set 1 — technique: DHFR PCA, dose-response; matrix: yeast; setting: Hill fit, mean, not affinity; added: (+)-ABA, dose series; direction: lower = more sensitive
Target: ABI1, truncated, D143A, DHFR fusion (Arabidopsis thaliana, UniProt P49597)
Starting sequence: PYL1, truncated, DHFR fusion (Arabidopsis thaliana, UniProt Q8VZS8); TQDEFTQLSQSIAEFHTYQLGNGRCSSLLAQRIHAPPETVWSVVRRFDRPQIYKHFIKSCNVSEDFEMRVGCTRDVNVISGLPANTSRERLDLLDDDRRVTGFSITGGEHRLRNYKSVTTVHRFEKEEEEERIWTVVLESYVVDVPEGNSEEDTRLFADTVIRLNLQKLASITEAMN
| Change | ABA EC50 [µM] |
| --- | --- |
| H55D | 7.16 |
| T17E | 15.7 |
| I79N | 20.7 |
| T1K | 1.71 |
| H55C | 0.232 |
| G108E | 287 |
| G102M | 63.9 |
| Q31A | 41.7 |
| R111A | 119 |
| S26Q | 7.91 |

Set 2 — technique: RNA Bind-n-Seq; molecule type: RNA; matrix: in vitro; tested at: not given; setting: RNA with constant flanks, ends assumed; baseline: input RNA pool; direction: higher = stronger binding
Target: RING finger protein unkempt homolog, zinc fingers 1-6, GST-SBP tag (UNK, Homo sapiens, UniProt Q9C0B0, residues 30-357)
Chain of UniProt Q9C0B0 (30-357, looked up): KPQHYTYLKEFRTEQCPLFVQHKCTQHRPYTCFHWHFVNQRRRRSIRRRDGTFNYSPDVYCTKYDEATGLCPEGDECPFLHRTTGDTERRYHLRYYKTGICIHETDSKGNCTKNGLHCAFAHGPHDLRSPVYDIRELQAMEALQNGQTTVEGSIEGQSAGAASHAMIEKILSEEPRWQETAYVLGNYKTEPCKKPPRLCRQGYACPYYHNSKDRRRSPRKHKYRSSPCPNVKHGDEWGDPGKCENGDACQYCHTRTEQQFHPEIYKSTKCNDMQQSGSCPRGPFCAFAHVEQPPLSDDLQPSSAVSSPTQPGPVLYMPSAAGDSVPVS
| Strand | bound/input enrichment [ratio] |
| --- | --- |
| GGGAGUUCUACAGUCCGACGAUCUAAUAUUUUUGUGAACUGGUGUAAAUUGUUAAUGCAUAUAAGCUUGUGUAUUUUUGUAAACCGUUUUGUGAUUUAUUUCUUGCCCCAUAUGUAAAUAUUUAGAGUCUCAUUUCUUGCAAACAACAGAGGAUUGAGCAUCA | 0.573 |
| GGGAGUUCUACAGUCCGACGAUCACUAUUGGAUUUAAUGUGGAGACGGUGACAUACAAAAAUCUCAAAUUCCAAGUUUGGGACUCCGGAGGACAGACAAGUAUCAGGCCAUACUGGAGAUGUUAUUAUUCAAACACAGAUGCACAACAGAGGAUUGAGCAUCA | 0.287 |
| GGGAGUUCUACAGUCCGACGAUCCACCGGUCCCCUCACAUCCCGUAUAAGUUGCUGCACCUGGUGUGGACCCACGCGAGGCACCCCGCAGGCUACGAGCAGCAGGACGCCCACGAGUUCCUCAUCGCGGCCCUGGACGUGCUCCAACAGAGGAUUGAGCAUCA | 0.118 |
| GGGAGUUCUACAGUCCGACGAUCUAUACUUUGCUGAUCAACAUUCUUCAUAGUGAAGAUCUUGGAAAGGAUGUUGAAUUUGAAGCCGUUGGUGACAGCCCUGAAAAAGUGGGGCCAAAACAAGCUGAAGAUGCUGCCAAAAGCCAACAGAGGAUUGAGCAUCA | 0.203 |
| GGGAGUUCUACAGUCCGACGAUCACUGCCAGGCUGUUUCAGCCAGGAAGGCCAAAAUCAAGAGUGAGAUGUAGAAAGUUGUAAAACCGAAAAAGUGGAGUUGGUGAAUCGGUUGUUCUUUCCUCACAUUUGGAUGAUUGUCAUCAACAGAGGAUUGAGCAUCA | 0.265 |

Set 3 — technique: protein binding microarray; molecule type: double-stranded DNA, one strand shown; matrix: in vitro; tested at: not given; baseline: not given; direction: higher = stronger binding
Target: Histone acetyltransferase KAT6A, winged helix 1, GST fusion (KAT6A, Homo sapiens, UniProt Q92794, residues 1-85)
Setting: 8-mer, flanks averaged, mean of 2 arrays, mostly near background
Residues (chain): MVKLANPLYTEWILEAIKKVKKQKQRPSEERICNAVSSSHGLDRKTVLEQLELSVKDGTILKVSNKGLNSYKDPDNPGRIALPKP
| Strand | E-score |
| --- | --- |
| GATCGAGA | -0.225 |
| ACGAATAG | -0.11 |
| GATTTTTA | -0.107 |
| GTAGTTCA | -0.13 |
| GTCGTTTA | 0.0787 |
| GAGAGACC | -0.081 |
| AACTGTCT | -0.101 |
| CTTTTCTA | -0.191 |
| GCACGAAC | 0.0875 |
| CGATCCAC | -0.111 |
| AGTAGTGA | -0.147 |
| ACTATAAG | 0.0187 |
| AAGGCACG | 0.0641 |
| AACGCGAG | 0.172 |
| AACAGCTT | -0.158 |
| CCGCAGAA | 0.342 |

Set 4 — target: CCNB3, cyclin fold, Cln2 fusion (human); technique: yeast growth competition, sequencing; matrix: yeast; setting: weak parent motif; baseline: not given; direction: higher = stronger binding
Starting sequence: PLK5 docking peptide (human); IFRKVGQRLLTQC
| Change | normalised enrichment score |
| --- | --- |
| I1A | 0.454 |
| R8A | 0.521 |
| K4A | -0.0763 |
| T11A | 0.806 |
| V5A | 0.279 |
| G6A | 0.227 |

Set 5 — technique: competition protein-binding microarray; molecule type: double-stranded DNA, one strand shown; matrix: in vitro; tested at: 2 µM; added: Cbf1 competitor, 0.05 µM; direction: higher = stronger binding
Target: Phosphate system positive regulatory protein PHO4, full length, GST-tagged (PHO4, Saccharomyces cerevisiae, UniProt P07270, residues 1-312)
Setting: whole 60-bp probe, lowest competitor level
Target sequence (chain): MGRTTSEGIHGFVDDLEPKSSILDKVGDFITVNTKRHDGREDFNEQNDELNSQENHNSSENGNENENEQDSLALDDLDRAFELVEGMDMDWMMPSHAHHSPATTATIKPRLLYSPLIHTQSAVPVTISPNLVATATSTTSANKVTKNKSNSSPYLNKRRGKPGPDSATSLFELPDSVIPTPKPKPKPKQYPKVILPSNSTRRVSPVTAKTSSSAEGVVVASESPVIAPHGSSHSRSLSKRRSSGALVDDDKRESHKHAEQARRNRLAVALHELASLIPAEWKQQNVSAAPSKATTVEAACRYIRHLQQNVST
| Strand | fluorescence intensity [a.u.] |
| --- | --- |
| CGCTACCAACTGCGCCATGTGCCCAGAATTTCTGTAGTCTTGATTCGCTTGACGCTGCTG | 12900 |
| CCCGCCCCCGGCCAGCACGCGCCTCTGCCTGAGACCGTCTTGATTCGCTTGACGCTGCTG | 10500 |
| TTGTACATTTTCCATCACGTGCAAAATTTGTTTCAAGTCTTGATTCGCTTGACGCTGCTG | 15800 |
| CGTCCTAGTGATTGGAATGTGGGTGCCATGAGGAAGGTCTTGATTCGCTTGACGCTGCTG | 7300 |
| TGATAGTTTTTCTCCCTCGTGAAGCAGCATGTTTTAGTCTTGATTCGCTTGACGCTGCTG | 8450 |
| GAGAGCCTTGGTTGTCATGCCCTGAGGACCCAATGTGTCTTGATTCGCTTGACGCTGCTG | 3950 |
| CGTCCTAGCGATTGAATGGTGGGTGCCATGAGGAAGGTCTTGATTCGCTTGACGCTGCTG | 6360 |
| CGTATGTCAGATCCTCGCATGATAAAAGAAATTATGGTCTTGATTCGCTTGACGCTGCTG | 6100 |
| GCAATAGACACCACAAACGTGCGGAAGAAACCGCAAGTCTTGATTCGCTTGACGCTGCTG | 11400 |
| CGTCCTAGTGATTGGTTGGTGGGTGCCATGAGGAAGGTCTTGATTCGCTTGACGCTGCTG | 7080 |
| AAACCCGGGCTGAAATCCGTGCAATGCATCAAATTTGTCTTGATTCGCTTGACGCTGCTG | 4370 |
| ATAGAAAACTGCATAGTCGTGCTTTCAAACCTTTCTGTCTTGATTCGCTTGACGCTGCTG | 7380 |
| TGTGCTTGATAGCTTACCGTGCAAAAAATAATGGGTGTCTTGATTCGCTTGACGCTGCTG | 4950 |
| GTCTTGTCTCATTGTCACAAAACTTTCCCCACTTCAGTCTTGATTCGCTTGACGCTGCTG | 3990 |

Set 6 — technique: protein-binding microarray; molecule type: double-stranded DNA, one strand shown; matrix: in vitro; tested at: 250 nM; setting: 60-bp whole probe; added: salmon DNA 0.4 mg/ml; baseline: random background probes; direction: higher = stronger binding; constant ends, left off below: GCCTAGCAC … GTCTTGATTCGCTTGACGCTGCTG
Target: Interferon regulatory factor 7, full length, phosphomimetic (IRF7, Homo sapiens, UniProt Q92985, residues 1-503, S101K/S471D/S472D/S475D/S476D/S477D/S483D/S484D/S487D)
Chain of UniProt Q92985 (whole entry, unmodified, looked up): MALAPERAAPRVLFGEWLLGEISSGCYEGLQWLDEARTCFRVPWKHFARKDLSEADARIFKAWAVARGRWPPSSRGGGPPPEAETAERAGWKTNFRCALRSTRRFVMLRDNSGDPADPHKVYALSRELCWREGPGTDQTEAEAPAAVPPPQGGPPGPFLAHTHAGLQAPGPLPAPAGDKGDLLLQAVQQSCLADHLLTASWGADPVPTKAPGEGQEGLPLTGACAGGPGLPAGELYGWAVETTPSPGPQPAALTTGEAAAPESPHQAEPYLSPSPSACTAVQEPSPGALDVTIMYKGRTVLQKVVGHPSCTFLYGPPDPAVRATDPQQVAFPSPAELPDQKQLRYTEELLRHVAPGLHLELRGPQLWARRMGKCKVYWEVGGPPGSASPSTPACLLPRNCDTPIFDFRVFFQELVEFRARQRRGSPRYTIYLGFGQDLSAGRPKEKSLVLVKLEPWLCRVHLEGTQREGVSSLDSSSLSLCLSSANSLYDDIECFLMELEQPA
| Strand | log fluorescence [z-score] |
| --- | --- |
| GACGAAGTGAGTCTCGAGACGTGCTAG | 0.389 |
| TTAGTTCTCGGTCTCGGTTAGTGCTAG | 2.72 |
| TCAGTTTTCGCTTTCTTACTGTGCTAG | 7.94 |
| CACGATCTCAGACTGGAGACGTGCTAG | -0.109 |
| GGCGATATCAGACTGGAGACGTGCTAG | -0.816 |
| TCATCATTGCATATAGAACTGTGCTAG | 0.052 |
| TCATCCTCCTCTCTCTTACTGTGCTAG | 1.14 |
| GACGATATCGAGACTGGAGACGTGCTA | 0.418 |
| TTAGGTTTCTACACTGGGTTAGTGCTA | 0.6 |
| GACGCTTTCAGTTTCGAGACGTGCTAG | 4.72 |
| TGTTTTAATTTTCTCTTTGGGTGCTAG | 4.36 |
| GACGATATAAGACTGGAGACGTGCTAG | -0.0448 |
| GCCGGTATCGGGACTGGGGACGTGCTA | -0.0159 |
| GACGGTTTCGGGTTTCGGGAAGTGCTA | 11.8 |
| TTAGGTATCGGGACTGTGTTAGTGCTA | -0.0372 |
| TCATAAGCAAAAATGATACTGTGCTAG | 0.255 |
| CCAACTCTGTTTTCGCTTTCTGTGCTA | 4.22 |

For quick reference, copied from above (set 5):
| Strand | fluorescence intensity [a.u.] |
| --- | --- |
| TTGTACATTTTCCATCACGTGCAAAATTTGTTTCAAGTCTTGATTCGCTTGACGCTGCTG | 15800 |
| GCAATAGACACCACAAACGTGCGGAAGAAACCGCAAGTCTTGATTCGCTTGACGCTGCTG | 11400 |
| CGTATGTCAGATCCTCGCATGATAAAAGAAATTATGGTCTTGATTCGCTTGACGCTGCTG | 6100 |
| CGCTACCAACTGCGCCATGTGCCCAGAATTTCTGTAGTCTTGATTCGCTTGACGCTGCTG | 12900 |
| ATAGAAAACTGCATAGTCGTGCTTTCAAACCTTTCTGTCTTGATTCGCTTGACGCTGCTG | 7380 |
| TGATAGTTTTTCTCCCTCGTGAAGCAGCATGTTTTAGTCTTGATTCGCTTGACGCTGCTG | 8450 |
